Measurements collected from several papers.
Parts stem from different laboratories: compare values within a part only.

Series 1 — method: RNAcompete; form: RNA; medium: in vitro; concentration: 20 nM; setting: 7-mer, probes averaged, single round; reference: mean of 7-mers; reading: higher = stronger binding
Target: PABPC1L2, full length, GST fusion (mouse, UniProt A0ABA7IW68)
Target sequence (chain): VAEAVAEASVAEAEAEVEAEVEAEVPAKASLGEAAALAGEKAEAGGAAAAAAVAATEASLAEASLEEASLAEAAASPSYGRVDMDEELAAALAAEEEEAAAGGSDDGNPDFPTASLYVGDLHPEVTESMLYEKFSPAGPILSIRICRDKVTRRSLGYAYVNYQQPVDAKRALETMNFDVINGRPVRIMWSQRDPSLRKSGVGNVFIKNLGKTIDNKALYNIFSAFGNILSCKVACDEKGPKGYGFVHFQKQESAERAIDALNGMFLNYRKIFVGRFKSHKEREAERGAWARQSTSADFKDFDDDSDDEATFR
Oligonucleotide | 7-mer Z-score
CCCGCUG | -0.371
CUCGGAG | -0.0355
GGUUGAA | -0.0337
GCCUCCG | -0.306
UGAUGCC | -0.17

Series 2 — method: RNA Bind-n-Seq; form: RNA; medium: in vitro; concentration: 365 nM; reference: no-protein control; reading: higher = stronger binding
Target: RNA binding protein fox-1 homolog 2, RRM domain, GST-SBP tag (RBFOX2, Homo sapiens, UniProt O43251-10, residues 100-194)
Setting: natural RNA segment, single round, ends assumed
Shared flanks, not repeated: GGGAGUUCUACAGUCCGACGAUC … UGGAAUUCUCGGGUGCCAA
Residues (chain): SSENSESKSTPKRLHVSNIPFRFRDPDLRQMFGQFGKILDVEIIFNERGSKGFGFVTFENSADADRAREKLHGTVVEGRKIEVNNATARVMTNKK
Oligonucleotide | RBNS enrichment (R)
AGUUGUGAGUGAGCUCAGCUCCUUCAGGCCUGGCCUCUCCCAGAACAGAGUGAAGCCCCUGCCCUGGACCCCUGCUCCCUUCUACCCUUGAGGGCCACCAAUGGAAGAGC | 0.414
CCUACGUGAUGUACAUAGAAUAUUAUAGCCUAAAGAUUUUCCAGUUACUUGCGGUCUUUUUAAAUUGAGGAGCCCCACUUCCACUGUCCACCCCUUGUCUUUGUGUGUCA | 0.763
CCAAACCUUGGCCUUUCUGCAAGGGCAGCAUAUGGAAACAUCAACUCUGAGAACAAAAUACUACCUCACUCUUUACGUACGUGGUGACUGUACGCACAGUCUGUGCUGCA | 1.57
UUAUUUUGACAAAGGGGAACACUGACUUUCUGAAGGAUUCAGAAAGAACCUUAGUGAAAGGUUCUCAGUCUCUGAGAGUGGACCCUAAUUAACAUAAAGACCAUUCAUCA | 0.3
UUUCCUGUUUUUUCUGUUGCUGUGGAACUUAAAGAAUGUGAAAGCUGUCAAAGGGUGUUUUCGGAAUCACUUUUGUGUUUCGUAUAGUAAAACAAUGUGAUUCAUUCCAA | 0.46

Series 3 — method: protein binding microarray; form: double-stranded DNA, one strand shown; medium: in vitro; concentration: not given; reference: not given; reading: higher = stronger binding
Target: Histone acetyltransferase KAT6A, both winged helices, GST fusion (KAT6A, Homo sapiens, UniProt Q92794, residues 1-181)
Setting: 8-mer, flanks averaged, mean of 2 arrays, mostly near background
Construct (chain): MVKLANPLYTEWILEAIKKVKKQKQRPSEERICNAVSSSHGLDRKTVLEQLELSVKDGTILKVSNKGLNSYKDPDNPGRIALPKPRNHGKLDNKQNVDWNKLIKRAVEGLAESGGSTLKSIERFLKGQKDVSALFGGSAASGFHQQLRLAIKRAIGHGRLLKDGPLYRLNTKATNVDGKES
Oligonucleotide | E-score
ACACGTAA | -0.0501
AAACGTGT | -0.00252
CTTCGATA | 0.111
AGCCCGTC | 0.218
TAGCTACA | -0.0996
ATTACCTG | -0.0805
ATCATAAC | -0.00664

Further values, each from its own experiment
Molecule | target | test | test system | conditions | scale | measurement | value
PhoQ, residues 284 288 289 292 302 303 QWGLFV | PhoP, residues 12 14 15 18 19 LHHVQ (Escherichia coli, UniProt P23836) | Sort-seq, item: YFP reporter | E. coli | PhoQ-PhoP variant library, added: 10 µM Mg2+ | reference: high Mg2+ state, higher = stronger signaling | fold induction | 12.9

Repeated from above (series 2):
Oligonucleotide | RBNS enrichment (R)
UUUCCUGUUUUUUCUGUUGCUGUGGAACUUAAAGAAUGUGAAAGCUGUCAAAGGGUGUUUUCGGAAUCACUUUUGUGUUUCGUAUAGUAAAACAAUGUGAUUCAUUCCAA | 0.46
UUAUUUUGACAAAGGGGAACACUGACUUUCUGAAGGAUUCAGAAAGAACCUUAGUGAAAGGUUCUCAGUCUCUGAGAGUGGACCCUAAUUAACAUAAAGACCAUUCAUCA | 0.3
